Assay results pooled from the literature.
A part holds a random share of what one study measured.

Set 1
Target: Hepatocyte nuclear factor 3-alpha (Foxa1, Mus musculus, UniProt P35582, residues 1-468, full length assumed)
Method: EMSA with sequencing
Molecule type: double-stranded DNA, one strand shown
Medium: in vitro
Tested at: 10 and 20 nM
Setting: whole designed probe, mean of two concentrations, ends assumed
Reference: negative control set to 0
Reading: higher = stronger binding
Target sequence (chain): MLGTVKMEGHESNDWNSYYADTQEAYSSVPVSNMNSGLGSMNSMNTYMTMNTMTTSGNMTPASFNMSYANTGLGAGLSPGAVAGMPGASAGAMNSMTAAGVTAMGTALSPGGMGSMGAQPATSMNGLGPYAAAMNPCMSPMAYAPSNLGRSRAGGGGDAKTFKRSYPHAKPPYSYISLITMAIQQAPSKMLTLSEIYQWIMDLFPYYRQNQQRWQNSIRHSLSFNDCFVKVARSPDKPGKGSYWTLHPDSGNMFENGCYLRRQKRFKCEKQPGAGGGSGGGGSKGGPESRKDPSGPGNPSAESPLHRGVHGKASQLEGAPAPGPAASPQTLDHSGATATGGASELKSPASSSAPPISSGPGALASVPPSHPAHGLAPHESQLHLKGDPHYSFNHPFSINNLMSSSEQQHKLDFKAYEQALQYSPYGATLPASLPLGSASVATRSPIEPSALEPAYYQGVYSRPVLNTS
`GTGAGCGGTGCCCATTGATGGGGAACATCTTCCCCCTCTTCCTTGCCCCACCAGCTCACCTTCCCGGGTTATTTGCAGATAGGAAAATAAATAAAGCCGGCATTCGTTAACCCTCTTCTGGCGCAAACTGCTGTTTGCTCTGGATGAATCAGTTTTCGCGGCCCGGTCAAGGCTCCGGGAGAGCAAAGCACCGTGTCAGGGCCATGATCCGGGGTGGCCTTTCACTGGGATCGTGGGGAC` — result for “normalised bound fraction”: 0.343 ratio.
`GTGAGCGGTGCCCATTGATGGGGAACCCACTCAGCTGTTTTCTTAAACTTGGTTGAATAACTGGTATTCTTCCTGCTCACAAAGTCTTTGTTAGTGTGCATATTGCAAAACCATCCTAAGTAATCTGTCTGTGTCATCTGTATTAAAGGGAAGTTATGCATGGATTAGTGTATAATAGCATGGGTTAGGGAGAAAAATGAGTCACCAAAGTAGCTGGTTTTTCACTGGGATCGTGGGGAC`: “normalised bound fraction” -0.0594 ratio.
For `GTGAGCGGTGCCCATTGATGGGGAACGAAATGAGTCAGCTTAATCAACTGAAATTCGCATTTGCATAGTTCTCGAGGCTAGAAGTTCCAGACCAGGACACAGTGAGGAGGCAGCAGTCTGCAATCTAGGAAGAGAGCCCTCACCAGGAAATCAGTCAGCTGTTCTCATTTAATGTTCTCACTTTAGAAGATCATGCAAGGGACAAAATCTCCAGAATCTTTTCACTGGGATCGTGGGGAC`, “normalised bound fraction” read -0.05 ratio.
`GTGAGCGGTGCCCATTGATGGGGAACCACACACACTCACACACACAATCAAGAAACCATCAAACAAAGCTCAGAAACATTTCAAACATAAGATCATCTTTTACTTTACTTTTTTGTTGCATGTTTACTTTGCCTTCTGGAAATATTGCACAATCTATTAGCTTTTTCTCTTTAGATGTTTGAAGGATACAGAAGGTACTACTAACTTAAAAAAAAAAACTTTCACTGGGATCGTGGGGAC` — result for “normalised bound fraction”: 0.327 ratio.
`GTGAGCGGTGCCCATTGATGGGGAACATCTTCCCCCTCTTCCTTGCCCCACCAGCTCACCTTCCCGGGTATCTGCAAATAAGTATTTATTTTCAAGCCGGCATTCGTTAACCCTCTTCACGCGCATACTGCTGTTTACTTTGGATGAATCATGGTCCTTTGGCGACGCCAGGCTCCGGGAGAGCAAAGCACCGTGTCAGGGCCATGATCCGGGGTGGCCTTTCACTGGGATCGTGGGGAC`: “normalised bound fraction” 0.392 ratio.

Set 2
Target: Sal-like protein 4, full length isoform B (SALL4, Homo sapiens, UniProt Q9UJQ4-2, residues 1-616)
Method: universal PBM
Molecule type: double-stranded DNA, one strand shown
Medium: in vitro
Tested at: not given
Setting: 8-mer, flanks averaged, mean of replicates
Reading: higher = stronger binding
`CAGCGGGG` has an E-score of -0.275.
With `CCCTGTCA` the E-score was -0.187.
`ATCTTCGC` gave an E-score of 0.071.
`TCCTTAGA` gave an E-score of 0.0316.
For `GCACCCGC`, the E-score was -0.118.
The E-score of `AAGTAGTC` is reported as 0.0232.
With `CCGCCTAA` the E-score was -0.142.
`AGGTGTTA` gave an E-score of 0.0962.
`ACAATTGT` has an E-score of 0.235.
`CAAAAAAC` has an E-score of 0.201.
`ACACTGCT` has an E-score of -0.0274.

Set 3
Target: RNA binding protein fox-1 homolog 2, RRM domain, GST-SBP tag (RBFOX2, Homo sapiens, UniProt O43251-10, residues 100-194)
Method: RNA Bind-n-Seq
Molecule type: RNA
Medium: in vitro
Tested at: 365 nM
Setting: natural RNA segment, single round, ends assumed
Reference: no-protein control
Reading: higher = stronger binding
Under “RBNS enrichment (R)”, `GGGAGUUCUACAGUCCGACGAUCAUGCUGGACAAAGAUGAAAGCGACCUUCAAGUCUCCCCCCAAGAUGGAACACUCAGUGCCGUAGCCCAGGAAGGACUUGCGGUUUCUGAUAGUUCUGAAGGCAUGAGCAAUGGAAUUCUCGGGUGCCAA` is recorded as 0.556.
`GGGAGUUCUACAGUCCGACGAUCUCUCUGAAUCUGUUAUGAACACGUUGGUUGGCUGGAUUCAGUAAUAAAUAUGUAAGGCCUUUCUUUUAAUUGCUGUUGUAUUGUGGUUUGUCAAUUACUGAAUUCUCCCUUGGAAUUCUCGGGUGCCAA` — result for “RBNS enrichment (R)”: 1.55.
For `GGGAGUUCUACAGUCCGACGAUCGUUAAUCCAGUUUCCUAUUAGAAAGUGUGUCUUUGCUAUUUCCUCUGUAAGAGAAUAGAAUGGCCUUGAGAGUUUAUGAAGGAUUUGCACACUCGUCUUGCCUAGGAAGUUGGAAUUCUCGGGUGCCAA`, “RBNS enrichment (R)” read 1.78.
`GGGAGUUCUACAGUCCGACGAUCAUCUCCAGCAGUCUUGGUGCUGCUGUGCCCCGGGCUCUGGUCUGGCCGGGUGUGAGGGAAGUCAGACCUUGCAGGGCCCCAGGCCGCAGAAGAUUGCAUUUCACAGUCGUUGGAAUUCUCGGGUGCCAA`: “RBNS enrichment (R)” 0.746.
Under “RBNS enrichment (R)”, `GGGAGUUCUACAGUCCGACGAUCGGGACAGCAUCUGCCCGACUUCCCGUAAAGGCAUAAAGGCACGCAGCCCAAAAGACGGGAAGAGGAGGCCUUUGGCUGCUUGUGUUGACAGCUUAAAGGGGUCUACACCCUGGAAUUCUCGGGUGCCAA` is recorded as 3.67.
`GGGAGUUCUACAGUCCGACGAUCUGUAGAAUUGUGAAUAUAACGAAACUGCAAAAAGUUAGUCUUAUGUAUAGACAUUAUUUUCGUCGUAUGUUUCUAUAUUUUGAAACAAAGGUAUGUAACUUCUUCAUUUGUGGAAUUCUCGGGUGCCAA` — result for “RBNS enrichment (R)”: 0.593.
Under “RBNS enrichment (R)”, `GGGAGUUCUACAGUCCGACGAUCUUUCCCCAGGCCUUUGCCCGCUUCUCCCUGGUCACCCUUGUCCAGUGUGAGUUUUGUCACAUUCUGGGCAGGUAGAGACGUGAAUGCUCUGUGGACCCUCCCCCUCUCCCUGGAAUUCUCGGGUGCCAA` is recorded as 1.02.

Single results of other studies
For `PhoQ, residues 284 288 289 292 302 303 ASTSDA`, the fold induction was 5.69 (PhoP, residues 12 14 15 18 19 LQHIR (Escherichia coli, UniProt P23836); Sort-seq, refers to: YFP reporter; E. coli; PhoQ-PhoP variant library, with: 10 µM Mg2+; reference: high Mg2+ state, higher = stronger signaling).

Repeated from above (set 1):
For `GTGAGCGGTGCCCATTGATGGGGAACGAAATGAGTCAGCTTAATCAACTGAAATTCGCATTTGCATAGTTCTCGAGGCTAGAAGTTCCAGACCAGGACACAGTGAGGAGGCAGCAGTCTGCAATCTAGGAAGAGAGCCCTCACCAGGAAATCAGTCAGCTGTTCTCATTTAATGTTCTCACTTTAGAAGATCATGCAAGGGACAAAATCTCCAGAATCTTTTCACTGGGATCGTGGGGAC`, “normalised bound fraction” read -0.05 ratio.
`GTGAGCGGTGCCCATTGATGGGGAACCACACACACTCACACACACAATCAAGAAACCATCAAACAAAGCTCAGAAACATTTCAAACATAAGATCATCTTTTACTTTACTTTTTTGTTGCATGTTTACTTTGCCTTCTGGAAATATTGCACAATCTATTAGCTTTTTCTCTTTAGATGTTTGAAGGATACAGAAGGTACTACTAACTTAAAAAAAAAAACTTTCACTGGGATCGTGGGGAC` — result for “normalised bound fraction”: 0.327 ratio.
`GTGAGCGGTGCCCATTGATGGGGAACATCTTCCCCCTCTTCCTTGCCCCACCAGCTCACCTTCCCGGGTATCTGCAAATAAGTATTTATTTTCAAGCCGGCATTCGTTAACCCTCTTCACGCGCATACTGCTGTTTACTTTGGATGAATCATGGTCCTTTGGCGACGCCAGGCTCCGGGAGAGCAAAGCACCGTGTCAGGGCCATGATCCGGGGTGGCCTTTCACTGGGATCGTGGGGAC`: “normalised bound fraction” 0.392 ratio.
